Measurements collected from several papers.
Parts stem from different laboratories: compare values within a part only. Changes are numbered by the printed parent chain.

Set 1 — target: CCNE1, cyclin fold, Cln2 fusion (human); technique: yeast growth competition, sequencing; sample: yeast; setting: weak parent motif; relative to: not given; reading: higher = stronger binding
Parent: MASTL docking peptide (human); PMIAKNLMCELDE
| Change | normalised enrichment score |
| --- | --- |
| D12R | -0.111 |
| E10D | -0.207 |
| N6P | 0.0494 |
| D12K | 0.0612 |
| C9M | -0.0697 |
| D12M | 0.0729 |
| I3Y | 0.451 |
| L7Y | -0.0864 |
| L7C | 0.0643 |
| A4V | 0.188 |
| N6F | 0.105 |
| K5F | -0.17 |
| I3N | -0.0188 |
| C9Y | -0.0568 |
| C9Q | 0.0772 |
| M2Q | -0.0576 |
| L7W | 0.384 |
| L7F | -0.0341 |
| L7V | -0.679 |
| C9H | -0.323 |
| A4R | 0.237 |
| D12Y | -0.384 |
| E10H | -0.173 |
| I3R | 0.00616 |
| L11S | -0.027 |

Set 2 — technique: protein-binding microarray; molecule type: double-stranded DNA, one strand shown; sample: in vitro; concentration: 2200 nM top; setting: 60-bp whole probe; together with: salmon DNA 0.4 mg/ml; relative to: random background probes; reading: higher = stronger binding; shared flanks, not repeated: GCCTAGCAC … GTCTTGATTCGCTTGACGCTGCTG
Target: Interferon regulatory factor 7, full length, phosphomimetic (IRF7, Homo sapiens, UniProt Q92985, residues 1-503, S471D/S472D/S475D/S476D/S477D/S483D/S484D/S487D)
Chain of UniProt Q92985 (whole entry, unmodified, looked up): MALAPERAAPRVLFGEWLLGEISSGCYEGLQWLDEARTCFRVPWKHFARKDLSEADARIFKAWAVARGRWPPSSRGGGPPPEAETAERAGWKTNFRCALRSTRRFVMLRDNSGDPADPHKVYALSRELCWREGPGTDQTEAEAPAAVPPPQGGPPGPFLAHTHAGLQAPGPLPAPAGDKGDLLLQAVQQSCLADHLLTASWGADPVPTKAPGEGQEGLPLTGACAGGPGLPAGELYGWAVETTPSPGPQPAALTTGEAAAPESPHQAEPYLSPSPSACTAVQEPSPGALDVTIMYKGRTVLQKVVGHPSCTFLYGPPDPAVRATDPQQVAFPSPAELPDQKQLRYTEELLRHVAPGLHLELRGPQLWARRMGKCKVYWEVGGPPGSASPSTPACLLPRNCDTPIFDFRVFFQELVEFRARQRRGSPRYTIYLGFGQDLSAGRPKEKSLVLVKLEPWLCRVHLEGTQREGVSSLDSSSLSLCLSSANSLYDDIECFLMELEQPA
| Sequence | fitted relative affinity |
| --- | --- |
| TTAGGTTCCCTTTTCCTCTAGTGCTAG | 2.85 z-score |
| GACGTTTTCCTACTGCTGACGTGCTAG | 2.38 z-score |
| AGGTTCTACTCCGTTAGTTGGTGCTAG | 1.27 z-score |
| CTTGCTTTCCAATTCTCTTTGTGCTAG | 3.79 z-score |
| GACGGACTGAGTTTCGGGACGTGCTAG | 2.08 z-score |
| TCATTTCTTTAACTCATACTGTGCTAG | 1.63 z-score |
| CTAGATTTCAGACTGGATTAGTGCTAG | 0.124 z-score |
| TCACTTTCAGTTTTCCTACTGTGCTAG | 9.9 z-score |
| TTTGGACTGGGTCTCGGTTAGTGCTAG | 0.129 z-score |
| GACGGTATCGGGGATCGGGACGTGCTA | -0.451 z-score |
| GACGGTATCGCGTATCGGGACGTGCTA | 0.4 z-score |
| GTGTTTCTCAACCATTTTGTTGTGCTA | 1.9 z-score |
| TTAGGACTGGGTTTCTGTTAGTGCTAG | 0.867 z-score |
| TTAGGTCTCGGTATCGGTGAGTGCTAG | 0.37 z-score |
| TTGTCTCTGTCCCTGTTTCTGTGCTAG | 2.55 z-score |
| TTAGATATCAGTATCGGTTAGTGCTAG | 0.761 z-score |
| TTCACTTTCTTTAACTCATTGTGCTAG | 2.32 z-score |
| TCATTTTTTTTTTTTTTACTGTGCTAG | 1.96 z-score |
| CGGCTACCGCGGCTCCTACAGTGCTAG | -0.587 z-score |

Set 3 — technique: protein binding microarray; molecule type: double-stranded DNA, one strand shown; sample: in vitro; concentration: not given; relative to: not given; reading: higher = stronger binding
Target: Histone acetyltransferase KAT6A, both winged helices, GST fusion (KAT6A, Homo sapiens, UniProt Q92794, residues 1-181)
Setting: 8-mer, flanks averaged, mean of 2 arrays, mostly near background
Construct (chain): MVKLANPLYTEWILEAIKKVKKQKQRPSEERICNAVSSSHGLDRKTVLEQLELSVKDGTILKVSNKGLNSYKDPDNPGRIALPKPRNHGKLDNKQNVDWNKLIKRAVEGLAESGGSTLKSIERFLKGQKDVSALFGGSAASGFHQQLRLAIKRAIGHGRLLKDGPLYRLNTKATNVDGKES
| Sequence | E-score |
| --- | --- |
| ACAGGATA | -0.119 |
| CCCATCCG | -0.0777 |
| CACGGCAA | 0.305 |
| ACCGCCTA | 0.156 |
| GAGAATGA | -0.126 |
| ACGGTTTC | 0.112 |
| GCCGTGGA | 0.25 |
| ACACCAGT | -0.179 |
| GATTTTCA | -0.111 |
| ACCCGGAC | 0.132 |
| CCGAACTA | 0.0843 |
| TCAATAAA | -0.129 |
| CAACATGA | 0.0639 |
| AGAACGCA | -0.0759 |
| ATCCCATG | -0.163 |
| TGGTCACA | -0.0017 |
| TATCGAAA | 0.0349 |
| GCTCCTTA | 0.00718 |
| CAGGTTGG | -0.15 |
| ATAGCTCA | 0.0197 |

Further values, each from its own experiment
| Molecule | target | test | test system | conditions | scale | quantity | value |
| --- | --- | --- | --- | --- | --- | --- | --- |
| PhoQ, residues 284 288 289 292 302 303 ALSMDL | PhoP, residues 12 14 15 18 19 IQFRS (Escherichia coli, UniProt P23836) | Sort-seq, item: YFP reporter | E. coli | PhoQ-PhoP variant library, together with: 10 µM Mg2+ | relative to: high Mg2+ state, higher = stronger signaling | fold induction | 6.75 |

Repeated from above (set 1):
| Change | normalised enrichment score |
| --- | --- |
| I3R | 0.00616 |
| I3Y | 0.451 |
| L7Y | -0.0864 |
| D12R | -0.111 |
| N6F | 0.105 |
| D12K | 0.0612 |
| C9Y | -0.0568 |
